Measured values gathered from unrelated publications.
Several values in a cell are separate wells, animals, samples, runs or records. Numbers after ± are the reported error. Converted amounts (≈) assume the structure as drawn.

Under “patients with adverse event”, `CNC(=O)c1ccc(-c2cnc3ncc(Cc4ccc5ncccc5c4)n3n2)cc1F` is recorded as 0% (measured: Dyspepsia; gastric cancer patients; oral, 600 mg twice daily, expansion cohort, grade 3-4).
Under “Irwin test score”, `O=C1NCCc2nc(OCc3cccc(F)c3)ccc21` is recorded as 0 (measured: tail erection; Sprague-Dawley rat male; oral, 100 mg/kg, 1 h; direction not given).
`CCN1CCN(Cc2ccc(NC(=O)c3ccc(C)c(NC(=O)c4cncc(-c5cccs5)c4)c3)cc2C(F)(F)F)CC1` has a plasma concentration of 274 ng/mL and 266 ng/mL and 174 ng/mL (LC-MS/MS; C57BL/6 mouse, plasma; intraperitoneal, 15 mg/kg single dose, 2 h).
For `O=C(O)CCc1cccc(O)c1`, CSF concentration read “not detected” (human CSF; concentration not given, mean).
The anaemia incidence of `COc1cc(Nc2ncc3c(n2)-c2ccc(Cl)cc2C(c2c(F)cccc2OC)=NC3)ccc1C(=O)O` is reported as 4% (patients; oral, dose not given, grade 4, any attribution, with: pembrolizumab).
`CCOc1c([C@H](C)n2nc(C)c3c(N)ncnc32)cc(Cl)c(F)c1[C@@H]1CNC(=O)C1`: “share of patients” 0% (measured: QTcF > 500 ms; previously treated B-cell malignancy; oral, dose not given, baseline QTcF ≤450 ms, all doses).
`COc1cccc(OC)c1-c1cc(C(=O)NC2(C(=O)O)C3CC4CC(C3)CC2C4)nn1-c1ccc(C(=O)N(C)CCCN(C)CCCN(C)C(=O)CN2CCN(CC(=O)[O-])CCN(CC(=O)[O-])CCN(CC(=O)[O-])CC2)cc1C(C)C.[177Lu+3]` (centres unmarked) has a tumour-to-stomach ratio of 201 (mouse HT-29 xenograft; 24 h, biodistribution; baseline: tumour over stomach).
`Cc1ccc(Sc2ccccc2N2CCNCC2)c(C)c1` — result for “participants with TEAE”: 0% (measured: protein in urine; healthy adult women; oral, 5 mg daily, 12 days).
`CNC(=O)c1ccccc1Nc1cc(Nc2ccc(N3CCOCC3)cc2OC)ncc1C(F)(F)F` gave a solubility of 1840 µg/mL (≈ 3.67 mM) (Captex MCT; 24 h, 25 °C).
The heart rate of `C[C@@H]1CN(c2c(F)c(N)c3c(=O)c(C(=O)O)cn(C4CC4)c3c2F)C[C@H](C)N1` is reported as 234 ± 0.8 beats/min (male Hartley guinea pigs, anaesthetized; intravenous, 10 mg/kg group, baseline before infusion).
With `CCN1/C(=C/C(C)=O)Sc2ccc(F)cc21` the heart rate was 114 ± 23 beats/min (cynomolgus monkey; oral, 10 mg/kg, 1 h post-dose).
With `CC(C)NCC(O)COc1cccc2ccccc12` (centres unmarked) the heart rate was 169 ± 0.8 beats/min (male Hartley guinea pigs, anaesthetized; intravenous, 3 mg/kg over 10 min, after infusion).
`C=CCn1c(=O)c2cnc(Nc3ccc(N4CCN(C)CC4)cc3)nc2n1-c1cccc(C(C)(C)O)n1` gave an AUC(0-t) of 7.74 µM·h (human; oral, 300 mg once daily, cycle 1 day 17, with: durvalumab 1500 mg IV; geometric mean).
With `CNc1ccc(-c2nc3ccc(O)cc3s2)cc1` [carbon-11 labelled] the uptake was 0.158 ± 0.09 SUV (ex vivo biodistribution; APP/PS1 Alzheimer mice, caudate nucleus; intravenous, 30 min).
Under “patients with grade 3 musculoskeletal disorders”, `CNC(=O)c1cc(Oc2ccc(NC(=O)Nc3cc(C(C)(C)C)nn3-c3ccc4ncccc4c3)c(F)c2)ccn1` is recorded as 6% (patients; oral, dose not given, cycles 1 and 2, Low Cmax subgroup).
`OC[C@H]1O[C@@H](c2ccc(F)c(Cc3cc4ccccc4s3)c2)[C@H](O)[C@@H](O)[C@@H]1O` — result for “hypoglycaemia-related adverse event”: 2% (Japanese patients, type 1 diabetes; oral, 25 mg/day, onset day 11; baseline: patients).
The tissue concentration of `CN(C(=O)n1cnc(-c2cccnc2)c1)C1CCCCC1` is reported as 8.8 ± 0.1 ng/g (Wistar rat, cerebral cortex; oral, 10 mg/kg, 24 h, single dose).
`COc1ncc(-c2nc3c(n2C(C)C)[C@H](c2ccc(Cl)cc2)N(c2cc(Cl)cn(C)c2=O)C3=O)c(OC)n1` gave a median Tmax of 4.1 h (human patients, plasma; oral, 400 mg, high-dose arm, cycle 2 day 1).
For `O=C(O)c1cccc(O)c1O`, CSF concentration read “not detected” (human CSF; concentration not given, mean).
`CC(=O)N(C)[C@H]1CCN(C(=O)c2cnc3c(c2)C[C@](C)(c2ccc(F)cc2)N3)C1`: “adverse events of special interest” 0% (healthy male subjects, multiple rising dose; oral, 15 mg once daily).
`FC(F)(F)c1ccc(CNc2ccc(Cc3c[nH]c4ncc(Cl)cc34)cn2)cn1`: “treatment-related adverse events” 14% (measured: Rash; patients with advanced solid tumours, all cohorts; oral, 1000 mg/day, any grade).
`COc1ccc([C@@H](O)c2cc(-c3ncnc4cc(N5CCOCC5)ccc34)c(F)cc2Cl)nn1`: “lymphopenia TEAE incidence” 17% (locally advanced rectal cancer patients; 100 mg, with: capecitabine and radiotherapy).
Under “treatment-related serious adverse events”, `C[C@@H](Nc1cc(F)cc(F)c1)c1cc(C(=O)N(C)C)cc2c(=O)cc(N3CCOCC3)oc12` is recorded as 0% (measured: Clostridioides difficile colitis; patients with advanced solid tumours; oral, dose not given, dose expansion phase I).
For `C=CC(=O)N(C)CCOc1c(N)ncnc1-c1cc(F)cc(NC(=O)c2ccc(C3CC3)cc2F)c1C`, the AUC was 117 ng·h/mL (human, plasma; oral, 25 mg once daily, day 12).
`O=C(O)CCC(=O)O.[2H]C([2H])([2H])Oc1cc(C)c2[nH]ccc2c1CN1CC[C@@H](C2CC2)C[C@H]1c1ccc(C(=O)O)cc1` — result for “subjects with increased creatinine TEAE”: 0% (multiple ascending dose; healthy Chinese subjects; 100 mg twice daily).
The tissue distribution of `CCc1c(-c2ccccc2)c(-c2ccccc2)nn1-c1ccccc1-c1cccc(OCC(=O)O)c1` is reported as 8.15% (female Sprague-Dawley rat, fat; oral, 10 mg/kg, 8 h).
The Ctau of `Cc1noc(C)c1-c1cc(C(O)(c2ccccn2)c2ccccn2)c2nc(C3CC3)[nH]c2c1` is reported as 60.7 ng/mL (human patients, plasma; oral, 1.4 mg, cycle 1 day 8, monotherapy).
For `C[C@@H](N)C1CCN(S(=O)(=O)c2cccc3cnccc23)CC1`, “treatment-related TEAE incidence” read 33.3% (healthy volunteers; dose not given, fasted,, all doses).
The plasma concentration of `C[C@H]1[C@H]2N(C(=O)CN(C)N2C(=O)NCc2ccccc2)[C@@H](Cc2ccc(OP(=O)(O)O)cc2)C(=O)N1Cc1cccc2cccnc12` is reported as 0 ng/mL (human, plasma; intravenous infusion over 4 h, 140 mg/m2, 24 h after dosing).
`O=c1cc(-c2ccccc2)oc2ccccc12` — result for CSF concentration: “not detected” (human CSF; concentration not given, mean).
The organ weight of `CC(C)C[C@H](NC(=O)[C@H](Cc1ccccc1)NC(=O)c1cnccn1)B(O)O` is reported as 126 mg (mouse xenograft, stomach; dose not given).
`CCCC(CCC)C(=O)Oc1cccc(C(O)CCN)c1.O=CO` (centres unmarked): “photopic S-cone ERG b-wave” 24.4 µV and 25 µV and 34.6 µV and 29.9 µV and 30.1 µV and 26.9 µV and 34.1 µV and 32.9 µV (Abca4-/-Rdh8-/- mice, photic damage; intraperitoneal, 10 mg/kg, 7 days, flash intensity 3).
Under “grade ≥3 Sepsis patients”, `COc1cc2nccc(Oc3ccc(NC(=O)c4cc5c(n(-c6ccccc6)c4=O)CCCC5=O)nc3)c2cc1OC` is recorded as 33.3% (relapsed or refractory AML; oral, 6 mg once daily).
The heart rate of `CC(C)(C)c1ccc(C(O)CCCN2CCC(C(O)(c3ccccc3)c3ccccc3)CC2)cc1` (centres unmarked) is reported as 232 ± 0.6 beats/min (male Hartley guinea pigs, anaesthetized; intravenous, 3 mg/kg group, baseline before infusion).
`COc1cc(/C=C/C(=O)O)ccc1O`: CSF concentration “not detected” (human CSF; concentration not given, mean).
`NC1(C(=O)N[C@@H](CCO)c2ccc(Cl)cc2)CCN(c2nc[nH]c3nccc2-3)CC1` — result for “incidence of maculopapular rash”: 0% (metastatic CRPC patients; 320 mg b.i.d., grade 3 to 4, treatment-related, with: enzalutamide 160 mg daily).
The heart rate of `CCCCc1oc2ccccc2c1C(=O)c1cc(I)c(OCCN(CC)CC)c(I)c1` is reported as 199 ± 0.3 beats/min (male Hartley guinea pigs, anaesthetized; intravenous, 5 mg/kg over 10 min, after infusion).
`CCc1cc(C(=O)NC)c2nccc(N3CCc4c(cc(Cn5ccnc5)cc4-c4cn(C)nc4C(F)(F)F)C3=O)c2c1`: “change in ALB” -2.2% (Sprague Dawley rat; oral, 50 mg/kg once daily, 7 days; baseline: vehicle).
With `CCCCCNCc1ccc(CNC(=O)c2csc3nc[nH]c(=O)c23)cc1` the EC50 was greater than 100 µM (haemolysis; human red blood cells; 1 h, 37 °C).
Under “subjects with TEAE”, `CC(C)(C(=O)N1CCOc2c(C#N)cncc2C1)C(F)F` is recorded as 0% (measured: renal and urinary disorders; human, both sexes; oral, 15 mg twice daily, 14 days, multiple ascending dose).
`NS(=O)(=O)c1cc(C(=O)O)c(NCc2ccco2)cc1Cl`: “subjects with adverse event” 0% (measured: toothache; healthy men; oral, 8 days, treatment-emergent, crossover trial).
Under “Anaemia dose reduction/interruption”, `CNC(=O)c1ccc(-c2cnc3ncc(Cc4ccc5ncccc5c4)n3n2)cc1F` is recorded as 1% (Japanese patients; oral, 400 mg, grade 3/4).
For `Cc1ccc([C@@H]2O[C@H](CO)[C@@H](O)[C@H](O)[C@H]2O)cc1Cc1ccc(-c2ccc(F)cc2)s1`, “urinary phosphate excretion change” read 167 mg (measured: inorganic phosphorus; Japanese type 2 diabetes patients; 400 mg, day 5, 24 h urine collection; baseline: baseline).
`O=C(Nc1nc2cccc(-c3ccc(CN4CCS(=O)(=O)CC4)cc3)n2n1)C1CC1`: “treatment-emergent adverse events” 0% (measured: blood and lymphatic disorders; rheumatoid arthritis patients; oral, 30 mg once daily, 4 weeks, any relatedness).
For `Cc1c(-c2ccc(N3CCc4cccc(C(=O)Nc5nc6ccccc6s5)c4C3)nc2C(=O)O)cnn1CC12CC3(C)CC(C)(C1)CC(OCCNCC[C@H](O)CO)(C3)C2`, “mean arterial pressure change” read 0 mmHg (beagle dog, male, anaesthetised; intravenous infusion, 0.01 mg/kg/min, 75 min; baseline: baseline).
`C=CC(=O)Nc1cc(Nc2nccc(-c3cn(C)c4ccccc34)n2)c(OC)cc1N(C)CCN(C)C` has a recovery of 95.6% (storage stability; human plasma; 24 h, -80 °C, high QC level).
`COc1ccc2nc([S@@+]([O-])Cc3ncc(CO)c(OC)c3C)[nH]c2c1` has an AUC(0-8 h) of 0.0436 µM·h (human, dried plasma spots; 5 mg racemic omeprazole, with: fluvoxamine and voriconazole).
`Cc1ccc(N(C)C(=O)/C=C/c2ccco2)cc1` gave a licking latency of 14.9 ± 0.2 s (hot plate test; mice; oral, 30 mg/kg daily for 7 days, 60 min, day 8).
`CC(C)(C)OC[C@@H]1C(=O)NCCN1C(=O)C[C@H](N)Cc1cc(F)c(F)cc1F`: “AUC(tau) at steady state” 91.8 ± 9.54 ng·h/mL (human, plasma; oral, dose not given, DP treatment).
For `O=C(/C=C/CCc1ccc(O)cc1)/C=C/c1ccc(O)cc1`, the body weight was 19.6 ± 0.98 g (nude mouse MCF7 xenograft; 40 mg/kg, day 4).
Under “subjects with TEAEs”, `C[C@@H](c1nc(-c2ccc(C#N)cc2)cs1)[C@](O)(Cn1cncn1)c1cc(F)ccc1F` is recorded as 0% (measured: abdominal discomfort; humans; oral, dose not given, with: ketoconazole).
`CC(C(=O)NCC(=O)NCC(CNC(=O)CNC(=O)C(C)N1CCN(CC(=O)[O-])CCN(CC(=O)[O-])CCN(CC(=O)[O-])CC1)(CNC(=O)CNC(=O)C(C)N1CCN(CC(=O)[O-])CCN(CC(=O)[O-])CCN(CC(=O)[O-])CC1)CNC(=O)CNC(=O)C(C)N1CCN(CC(=O)[O-])CCN(CC(=O)[O-])CCN(CC(=O)[O-])CC1)N1CCN(CC(=O)[O-])CCN(CC(=O)[O-])CCN(CC(=O)[O-])CC1.[Gd+3].[Gd+3].[Gd+3].[Gd+3]` (centres unmarked): “lanthanide tissue concentration” 5.7 ± 2.7 nmol/g (cynomolgus monkey, liver; dose not given, day 5).
For `O=C1CC[C@H](N2Cc3cc(N4CCN(CC5CCN(c6ccc([C@@H]7c8ccc(O)cc8CC[C@@H]7c7ccccc7)cc6)CC5)CC4)ccc3C2=O)C(=O)N1`, the recovery was 116% (rapid equilibrium dialysis; SD rat liver microsomes; 2.5 µM, 6 h).
For `C=CCN1CC(=O)N2[C@@H](Cc3ccc(O)cc3F)C(=O)N(Cc3cccc(N4CC(N5CCN(CC)CC5)C4)n3)C[C@@H]2N1C(=O)NCc1ccccc1`, “treatment-related decreased appetite” read 0% (advanced solid tumour patients; oral, 80 mg twice daily, grade ≥3, dose-escalation).
For `CC(C)n1c(Nc2cccnc2)nc2cnc(Nc3ccc(N4CCN(C)CC4)cc3)nc21`, “subjects with adverse event” read 0% (measured: gum pain; healthy male subjects; oral, 100 mg, study, with: gemfibrozil).
`N#Cc1ccc2c(c1)[C@H]1CCCN(C(=O)c3ccc4[nH]cnc4c3)[C@H]1C2` — result for “maximum ACTH level”: 15.6 pmol/L (human; 160 mg, day 7).

Some of these lines once more:
The organ weight of `CC(C)C[C@H](NC(=O)[C@H](Cc1ccccc1)NC(=O)c1cnccn1)B(O)O` is reported as 126 mg (mouse xenograft, stomach; dose not given).
For `Cc1c(-c2ccc(N3CCc4cccc(C(=O)Nc5nc6ccccc6s5)c4C3)nc2C(=O)O)cnn1CC12CC3(C)CC(C)(C1)CC(OCCNCC[C@H](O)CO)(C3)C2`, “mean arterial pressure change” read 0 mmHg (beagle dog, male, anaesthetised; intravenous infusion, 0.01 mg/kg/min, 75 min; baseline: baseline).
`OC[C@H]1O[C@@H](c2ccc(F)c(Cc3cc4ccccc4s3)c2)[C@H](O)[C@@H](O)[C@@H]1O` — result for “hypoglycaemia-related adverse event”: 2% (Japanese patients, type 1 diabetes; oral, 25 mg/day, onset day 11; baseline: patients).
Under “patients with grade 3 musculoskeletal disorders”, `CNC(=O)c1cc(Oc2ccc(NC(=O)Nc3cc(C(C)(C)C)nn3-c3ccc4ncccc4c3)c(F)c2)ccn1` is recorded as 6% (patients; oral, dose not given, cycles 1 and 2, Low Cmax subgroup).
